# Measurements collected from several papers.
# Parts stem from different laboratories: compare values within a part only. “And” joins repeats or separate records; there may be more than shown.

# Study 1 — cell line: U-87 MG; concentration: concentration not given; relative to: DMSO
# Structure (SMILES): CCN1/C(=C/C=C2\CCCC(/C=C/C3=[N+](CC)c4ccccc4C3(C)C)=C2NCCCCCCCCN2CCC(Nc3nc4ccccc4n3Cc3ccc(F)cc3)CC2)C(C)(C)c2ccccc21
measured,log2 fold change
SGF29 mRNA,0.934
BCL9L mRNA,-1.49
ATOH8 mRNA,-3.61
LRRC49 mRNA,2.94
RFTN1 mRNA,1.87
HECA mRNA,1.22
TROAP mRNA,-1.86
CEBPG mRNA,1.31
TMEM167B mRNA,0.908
KCNE4 mRNA,-1.49
ESPNL mRNA,-1.35
PCDHGA9 mRNA,-1.22
FOXD1 mRNA,-1.05
IFITM10 mRNA,-1.12
TREM1 mRNA,2.9
CAD mRNA,-0.835

# Study 2 — read-out: thermal unfolding; method: differential scanning fluorimetry; concentration: 5.5 µM; direction: higher = more unfolded
# Compound: C[C@@H]1CN(c2ccc(-c3cc(C(=O)NCCOCCOCCOCCOCCOCCOCCNC(=O)/C=C/c4[nH]cc(C(=O)N[C@@H](CC(N)=O)c5ccc(F)c(Cl)c5)c4-c4ccc(Cl)cc4F)ccc3F)cc2NC(=O)c2ccc(F)cc2C(F)(F)F)C[C@H](C)N1C
# DCAF1: DDB1- and CUL4-associated factor 1 (DCAF1, Homo sapiens, UniProt Q9Y4B6)
# Chain of UniProt Q9Y4B6 (whole entry, looked up): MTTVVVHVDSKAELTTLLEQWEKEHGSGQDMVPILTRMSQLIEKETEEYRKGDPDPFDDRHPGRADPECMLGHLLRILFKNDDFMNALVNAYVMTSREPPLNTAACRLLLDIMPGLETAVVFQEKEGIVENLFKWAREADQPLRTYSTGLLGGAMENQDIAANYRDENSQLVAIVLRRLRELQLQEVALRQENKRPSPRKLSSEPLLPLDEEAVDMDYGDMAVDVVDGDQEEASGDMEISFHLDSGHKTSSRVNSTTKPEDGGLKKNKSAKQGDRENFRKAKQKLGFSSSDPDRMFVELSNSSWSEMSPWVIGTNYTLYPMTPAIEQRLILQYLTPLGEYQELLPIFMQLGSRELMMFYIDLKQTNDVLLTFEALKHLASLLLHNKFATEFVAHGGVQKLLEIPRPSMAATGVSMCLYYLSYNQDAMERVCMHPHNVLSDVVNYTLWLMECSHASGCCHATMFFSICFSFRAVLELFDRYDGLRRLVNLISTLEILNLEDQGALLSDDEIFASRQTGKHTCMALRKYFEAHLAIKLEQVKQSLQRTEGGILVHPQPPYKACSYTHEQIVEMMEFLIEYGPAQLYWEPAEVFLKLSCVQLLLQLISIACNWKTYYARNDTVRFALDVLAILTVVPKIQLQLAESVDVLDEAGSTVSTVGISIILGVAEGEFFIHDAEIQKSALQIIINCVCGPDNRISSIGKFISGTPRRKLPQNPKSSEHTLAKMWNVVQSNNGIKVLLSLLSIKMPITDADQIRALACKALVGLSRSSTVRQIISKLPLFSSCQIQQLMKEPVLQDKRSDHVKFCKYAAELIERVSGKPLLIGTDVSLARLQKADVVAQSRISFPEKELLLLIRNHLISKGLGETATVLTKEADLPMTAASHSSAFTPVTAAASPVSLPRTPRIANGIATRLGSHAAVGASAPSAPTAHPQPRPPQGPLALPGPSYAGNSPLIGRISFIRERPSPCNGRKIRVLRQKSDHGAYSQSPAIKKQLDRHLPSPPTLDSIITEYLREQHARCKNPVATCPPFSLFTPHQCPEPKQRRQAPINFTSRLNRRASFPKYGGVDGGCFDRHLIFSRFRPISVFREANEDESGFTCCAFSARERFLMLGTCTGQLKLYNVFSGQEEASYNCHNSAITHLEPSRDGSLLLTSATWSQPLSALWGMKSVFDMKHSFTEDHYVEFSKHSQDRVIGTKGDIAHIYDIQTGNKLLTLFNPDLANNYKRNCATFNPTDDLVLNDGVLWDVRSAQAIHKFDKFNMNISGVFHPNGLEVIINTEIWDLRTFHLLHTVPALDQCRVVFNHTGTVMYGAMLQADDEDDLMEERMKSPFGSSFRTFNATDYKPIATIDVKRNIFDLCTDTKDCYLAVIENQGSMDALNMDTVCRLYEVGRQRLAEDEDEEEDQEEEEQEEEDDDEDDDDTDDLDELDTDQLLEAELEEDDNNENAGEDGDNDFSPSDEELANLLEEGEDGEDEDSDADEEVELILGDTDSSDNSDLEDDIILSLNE
# WDR5: WD repeat-containing protein 5 (WDR5, Homo sapiens, UniProt P61964)
target,temperature,SYPRO Orange fluorescence [a.u.]
DCAF1,74.61 °C,44100
WDR5,76.21 °C,53800
DCAF1,56.21 °C,31200
DCAF1,39.2 °C,11100
DCAF1,31 °C,8710
WDR5,56.41 °C,16100
WDR5,93.81 °C,49600
WDR5,54.61 °C,16900
WDR5,60.61 °C,15200
DCAF1,61.41 °C,51500
WDR5,45 °C,14600

# Study 3 — read-out: kinase activity; action: inhibitor; method: ADP-Glo; concentration: 0.0741 µM
# Target: Cyclin-dependent kinase 12, with cyclin K (CDK12, Homo sapiens, UniProt Q9NYV4)
# Chain of UniProt Q9NYV4 (whole entry, looked up): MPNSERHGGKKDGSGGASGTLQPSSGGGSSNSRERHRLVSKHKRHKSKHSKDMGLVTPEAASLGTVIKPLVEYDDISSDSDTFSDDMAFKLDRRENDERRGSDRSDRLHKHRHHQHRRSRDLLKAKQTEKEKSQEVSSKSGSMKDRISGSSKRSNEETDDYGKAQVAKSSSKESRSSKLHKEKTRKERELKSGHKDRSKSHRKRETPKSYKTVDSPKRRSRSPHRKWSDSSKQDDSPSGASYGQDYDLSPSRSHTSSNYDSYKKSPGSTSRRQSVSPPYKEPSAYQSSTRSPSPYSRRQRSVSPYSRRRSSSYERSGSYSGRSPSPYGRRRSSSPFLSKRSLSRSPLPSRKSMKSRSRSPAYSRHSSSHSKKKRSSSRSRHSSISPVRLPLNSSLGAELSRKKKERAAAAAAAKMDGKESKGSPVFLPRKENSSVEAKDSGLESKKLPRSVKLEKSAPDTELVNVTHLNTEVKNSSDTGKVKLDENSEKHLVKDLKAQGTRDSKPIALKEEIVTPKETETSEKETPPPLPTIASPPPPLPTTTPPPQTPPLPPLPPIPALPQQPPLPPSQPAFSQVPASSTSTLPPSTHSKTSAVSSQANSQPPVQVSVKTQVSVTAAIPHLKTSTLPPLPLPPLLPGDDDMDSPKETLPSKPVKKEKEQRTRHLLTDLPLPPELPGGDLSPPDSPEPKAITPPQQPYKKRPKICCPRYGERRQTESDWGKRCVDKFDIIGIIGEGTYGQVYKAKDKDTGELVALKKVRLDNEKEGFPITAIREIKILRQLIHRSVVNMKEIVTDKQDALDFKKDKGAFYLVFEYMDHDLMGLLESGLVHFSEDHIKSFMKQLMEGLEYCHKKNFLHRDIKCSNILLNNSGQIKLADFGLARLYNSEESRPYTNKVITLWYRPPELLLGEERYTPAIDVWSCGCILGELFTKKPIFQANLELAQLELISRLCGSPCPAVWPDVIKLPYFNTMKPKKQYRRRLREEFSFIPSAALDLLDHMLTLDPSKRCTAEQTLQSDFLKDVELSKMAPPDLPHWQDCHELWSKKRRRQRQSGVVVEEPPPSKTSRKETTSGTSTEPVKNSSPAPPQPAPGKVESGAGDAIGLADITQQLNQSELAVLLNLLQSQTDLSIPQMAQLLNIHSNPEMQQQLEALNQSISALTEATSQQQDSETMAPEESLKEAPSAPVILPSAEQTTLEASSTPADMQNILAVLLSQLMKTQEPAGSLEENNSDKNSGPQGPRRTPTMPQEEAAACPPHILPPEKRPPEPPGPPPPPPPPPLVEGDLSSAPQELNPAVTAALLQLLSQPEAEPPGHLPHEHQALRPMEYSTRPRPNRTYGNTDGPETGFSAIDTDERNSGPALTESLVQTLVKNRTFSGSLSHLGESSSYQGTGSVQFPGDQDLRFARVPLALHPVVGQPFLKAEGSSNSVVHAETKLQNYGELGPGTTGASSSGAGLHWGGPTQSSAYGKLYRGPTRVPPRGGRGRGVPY
SMILES,inhibition
CCn1cnc2c(NCc3nc4cc(Cl)c(Cl)cc4[nH]3)nc(N3CCN(C(C)=O)CC3)nc21,46.2%
CCn1cnc2c(NCc3nc4cc(Cl)c(Cl)cc4[nH]3)nc(N3CCN(C(=O)c4cccnc4)CC3)nc21,28.4%
CCn1cnc2c(NCc3nc4cc(Cl)c(Cl)cc4[nH]3)nc(N3CCN(S(C)(=O)=O)CC3)nc21,31.7%
CCn1cnc2c(NCc3nc4cc(Cl)c(Cl)cc4[nH]3)nc(N3CCN(C(=O)c4ccccc4)CC3)nc21,48.6%
CC(=O)N1CCN(c2nc(NCc3nc4cc(Cl)c(Cl)cc4[nH]3)c3ncn(-c4cnn(C)c4)c3n2)CC1,29.2%
CCn1cnc2c(NCc3nc4cc(Cl)c(Cl)cc4[nH]3)nc(N3CCN(C(=O)c4ccccn4)CC3)nc21,30.9%
CCn1cnc2c(NCc3nc4cc(Cl)c(Cl)cc4[nH]3)nc(N3CCN(C(=O)c4ccncc4)CC3)nc21,49.5%
CCn1cnc2c(NCc3nc4ccc(F)c(F)c4[nH]3)nc(N3CCn4ncnc4C3)nc21,31.6%
CCn1cnc2c(NCc3nc4cc(F)c(F)cc4[nH]3)nc(N3CCn4ncnc4C3)nc21,27.9%
CC(=O)N1CCN(c2nc(NCc3nc4cc(Cl)c(Cl)cc4[nH]3)c3ncn(C(C)C)c3n2)CC1,-6.6%

# Mixed results — organism: Arabidopsis thaliana
SMILES,system,setting,scale,measurement,result
COc1ccc2c(c1)OC(O)(C(=O)O)C(=O)N2Cc1ccccc1 (centres unmarked),Col-0,"50 µg/mL, seed germination",,root length,0.701 cm
O=C(O)C1(O)Oc2cc(F)ccc2N(Cc2ccccc2)C1=O (centres unmarked),2-week-old plants,"foliar spray, 200 µg/mL, 20 days, postemergence",relative to: untreated,fresh weight inhibition,75.5% and 75.8% and 76.7%
O=C(O)C1(O)Oc2ccccc2N(Cc2ccccc2)C1=O (centres unmarked),Col-0,"50 µg/mL, seed germination",,root length,1.06 cm
CCCN1C(=O)C(O)(C(=O)O)Oc2cc(F)ccc21 (centres unmarked),2-week-old plants,"foliar spray, 200 µg/mL, 20 days, postemergence",relative to: untreated,fresh weight inhibition,54.8% and 53.6% and 53.9%

# For quick reference, copied from above (study 3):
SMILES,inhibition
CCn1cnc2c(NCc3nc4cc(Cl)c(Cl)cc4[nH]3)nc(N3CCN(C(C)=O)CC3)nc21,46.2%
CCn1cnc2c(NCc3nc4cc(Cl)c(Cl)cc4[nH]3)nc(N3CCN(C(=O)c4cccnc4)CC3)nc21,28.4%
CCn1cnc2c(NCc3nc4cc(Cl)c(Cl)cc4[nH]3)nc(N3CCN(S(C)(=O)=O)CC3)nc21,31.7%
CCn1cnc2c(NCc3nc4cc(Cl)c(Cl)cc4[nH]3)nc(N3CCN(C(=O)c4ccccc4)CC3)nc21,48.6%
CC(=O)N1CCN(c2nc(NCc3nc4cc(Cl)c(Cl)cc4[nH]3)c3ncn(-c4cnn(C)c4)c3n2)CC1,29.2%
CCn1cnc2c(NCc3nc4cc(Cl)c(Cl)cc4[nH]3)nc(N3CCN(C(=O)c4ccccn4)CC3)nc21,30.9%
